Measured values from different studies.
Each line is one published result; not all experiments were run side by side. Numbers after ± are the reported error.
B1: enzyme (Bacteroides thetaiotaomicron, UniProt Q8A947); chain MIKNIVFDFGGVIVDIDRDKAVQAFIKLGLADADTRLDKYHQTGIFQELEEGKLSADEFRKQLGDLCGRELTMEETKQAWLGFFNEVDLRKLDYILGLRKSYHVYLLSNTNPFVMSWACSPEFSSEGKPLNDYCDKLYLSYQLGHTKPAPEIFDFMIKDSHVIPSETLFVDDGSSNIHIGKELGFETFQPENGADWRQELTVILNS
B2: susB (Bacteroides thetaiotaomicron, UniProt G8JZS4); chain QQKLTSPDNNLVMTFQVDSKGAPTYELTYKNKVVIKPSTLGLELKKEDNTRTDFDWVDRRDLTKLDSKTNLYDGFEVKDTQTATFDETWQPVWGEEKEIRNHYNELAVTLYQPMNDRSIVIRFRLFNDGLGFRYEFPQQKSLNYFVIKEEHSQFGMNGDHIAFWIPGDYDTQEYDYTISRLSEIRGLMKEAITPNSSQTPFSQTGVQTALMMKTDDGLYINLHEAALVDYSCMHLNLDDKNMVFESWLTPDAKGDKGYMQTPCNTPWRTIIVSDDARNILASRITLNLNEPCKIADAASWVKPVKYIGVWWDMITGKGSWAYTDELTSVKLGETDYSKTKPNGKHSANTANVKRYIDFAAAHGFDAVLVEGWNEGWEDWFGNSKDYVFDFVTPYPDFDVKEIHRYAARKGIKMMMHHETSASVRNYERHMDKAYQFMADNGYNSVKSGYVGNIIPRGEHHYGQWMNNHYLYAVKKAADYKIMVNAHEATRPTGICRTYPNLIGNESARGTEYESFGGNKVYHTTILPFTRLVGGPMDYTPGIFETHCNKMNPANNSQVRSTIARQLALYVTMYSPLQMAADIPENYERFMDAFQFIKDVALDWDETNYLEAEPGEYITIARKAKDTDDWYVGCTAGENGHTSKLVFDFLTPGKQYIATVYADAKDADWKENPQAYTIKKGILTNKSKLNLHAANGGGYAISIKEVKDKSEAKGLKRL
B3: enzyme (Listeria monocytogenes, UniProt Q8Y7B6); chain MSFDVLTINPGSTSTKLAVYQGDKVLFEETVRHTMQELADFNNVQEQFDFRWQVLRRVMDAHGYDVKKLQAVVGRGGLLRPVAGGTYMVTEKMIDDLKENKYGEHASNLGAMLAKKLADELTIPSFIVDPVVVDEMQEIARISGNAFVTRKSIFHALNHKAAGRKIAKELGKDYEKMNFVIAHLGGGISVAAHRQGKAVDVNNALDGDGPFSPERSGSLPMNDFLEACFSGKWTKRELHELIVGRGGMISYLGTNSMLEVEAKVQAGEEKAIEAFDAMAYQVSKEIGACSVVLQGKVDAIILTGGLARSELFTSKIIEQTNWITSVIIEPGEDELEALNSGVQRVLAGLEKEKEY
B4: GLTSCR2/Tat fusion 241-478; chain APAGASYNPSFEDHQTLLSAAHEVELQRQKEAEKLERQLALPATEQAATQESTFQELCEGLLEESDGEGEPGQGEGPEAGDAEVCPTPARLATTEKKTEQQRRREKAVHRLRVQQAALRAARLRHQELFRLRGIKAQVALRLAELARRQRRRQARREAEADKPRRLGRLKYQAPDIDVQLSSELTDSLRTLKPEGNILRDRFKSFQRRNMIEPRERAKFKRKYKVKLVEKRAFREIQLGGSRYGRKKRRQRRR
B5: protein (Bacteroides thetaiotaomicron, UniProt Q8A711); chain MKNTYIIGEIGQNHNGSVDLAKLIIELISRPVHEDVFGMDFMPMNAVKMTKRDLSEELAVSQMNQIYDNPNSFGRTYGEHRAFLELDDQAHFEIYKYAKSLGLDFIETLCAKGCLSLLKLFTPDRLKVASRDLTNLPLLEALAETHIPIILSTGMAGQRELDNALDVITRYHSNIAILHCVSQYPTHPNNLNLRTITYLKKHYNKFEIGFSDHTIGISAATAAVAMGAEIIEKHVTIDRHMKGTDQLGSLGPDGVNRMIRDIRIAECWLGTEDLYIEKGVEKSKIKLERSIATRKYIPAGSIIQESDIHLLSPGDGYKWIDKKNVIGHFAKQDISANEIIYPDFIE
B6: susA (Bacteroides thetaiotaomicron, UniProt Q8A1G0); chain TSTIKKVAPTFWWAGMKNPELQILLYGDRISSADVSLSADNITLQEVVKQENPNYLVLYLDLSKAAPQNFDIILKQGKKQTKIPYELKQRRPNASAVEGFDSSDVLYLIMPDRFANGNPSNDIIPGMLEGNVDRNEPFARHGGDLKGIENHLDYIADLGVTSIWLNPIQENDMKEGSYHGYAITDYYQVDRRFGSNEEFRKLTQEANAKGLKVVMDMIFNHCGSDNYLFKDMPSKDWFNFEGNYVQTSFKTATQMDPYASDYEKKIAIDGWFTLTMPDFNQRNRHVATYLIQSSIWWIEYAGINGIRQDTHPYADFDMMARWCKAVNEEYPKFNIVGETWLGNNVLISYWQKDSRLAYPKNSNLPTVMDFPLMEEMNKAFDEETTEWNGGLFRLYEYLSQDIVYSHPMSLLTFLDNHDTSRFYRSEADTKNLDRYKQALTFLLTTRGIPQIYYGTEILMAADKANGDGLLRCDFPGGWPNDTKNCFDAANRTPQQNEAFSFMQKLLQWRKGNEVIAKGQLKHFAPNKGVYVYERKYGDKSVVVFLNGNDREQTIDLVPYQEILPASSAFDLLTEKKVELRNELTLPSREIYLLSF
B7: DMGDH H109R (Homo sapiens, UniProt Q9UI17); chain ETVIIGGGCVGVSLAYHLAKAGMKDVVLLEKSELTAGSTWHAAGLTTYFHPGINLKKIRYDSIKLYEKLEEETGQVVGFHQPGSIRLATTPVRVDEFKYQMTRTGWHATEQYLIEPEKIQEMFPLLNMNKVLAGLYNPGDGHIDPYSLTMALAAGARKCGALLKYPAPVTSLKARSDGTWDVETPQGSMRANRIVNAAGFWAREVGKMIGLEHPLIPVQHQYVVTSTISEVKALKRELPVLRDLEGSYYLRQERDGLLFGPYESQEKMKVQDSWVTNGVPPGFGKELFESDLDRIMEHIKAAMEMVPVLKKADIINVVNGPITYSPDILPMVGPHQGVRNYWVAIGFGYGIIHAGGVGKYLSDWILHGEPPFDLIELDPNRYGKWTTTQYTEAKARESYGFNNIVGYPKEERFAGRPTQRVSGLYQRLESKCSMGFHAGWEQPHWFYKPGQDTQYRPSFRRTNWFEPVGSEYKQVMQRVAVTDLSPFGKFNIKGQDSIRLLDHLFANVIPKVGFTNISHMLTPKGRVYAELTVSHQSPGEFLLITGSGSELHDLRWIEEEAVKGGYDVEIKNITDELGVLGVAGPQARKVLQKLTSEDLSDDVFKFLQTKSLKVSNIPVTAIRISYTGELGWELYHRREDSVALYDAIMNAGQEEGIDNFGTYAMNALRLEKAFRAWGLEMNCDTNPLEAGLEYFVKLNKPADFIGKQALKQIKAKGLKRRLVCLTLATDDVDPEGNESIWYNGKVVGNTTSGSYSYSIQKSLAFAYVPVQLSEVGQQVEVELLGKNYPAVIIQEPLVLTEPTRNRLQKKGGKDKT

With `B1 (enzyme)` the Km was 100 µM (Nc1c(NC[C@H](O)[C@H](O)[C@H](O)COP(=O)(O)O)[nH]c(=O)[nH]c1=O; steady-state kinetics; pH 7.5, 25 °C).
`B2 (susB)` gave a Km of 89 µM (O=[N+]([O-])c1ccc(O[C@H]2O[C@H](CO)[C@@H](O)[C@H](O)[C@H]2O)cc1; steady-state kinetics; pH 6.6).
`HFRIGCRHSRIG` — result for “intermembrane protein release”: “increased” (measured: cytochrome c, AIF; peptide, purified mitochondria; 1 µM, 30 min).
For `pegcetacoplan`, “number of TEAEs” read 7 (measured: injury, poisoning, procedural complications; patients with PNH; dose not given, phase Ib trial).
With `B3 (enzyme)` the kcat was 0.112 ± 0.0283 s⁻¹ (CCC(CC)C(=O)O; steady-state kinetics; pH 7.5, 37 °C).
For `HY6-F9 chimeric IgG1 M252Y/S254T/T256E (Homo sapiens)`, the Kd was 2.72 ± 0.06 nM (FCGRT/B2M FcRn (Homo sapiens); BLI).
Under “subunits per oligomer”, `B4 (GLTSCR2/Tat fusion 241-478)` is recorded as 2 (itself; SEC; pH 8.0).
`GluA2/TARP γ-8 (x)` has a kainate efficacy of 30.7% (Gria1 (Rattus norvegicus, UniProt P19490-2); patch clamp; HEK293T; together with: philanthotoxin; baseline: glutamate current, higher = greater efficacy).
`enzyme (Bacteroides thetaiotaomicron, UniProt Q89YZ9)` has a kcat/Km of 552000 M⁻¹ s⁻¹ (O=[N+]([O-])c1ccc(O[C@H]2O[C@H](CO)[C@@H](O)[C@H](O)[C@H]2O)cc1; steady-state kinetics; pH 6.6).
For `B5 (protein)`, the kcat was 0.0167 ± 0.00167 s⁻¹ (C=C(OP(=O)(O)O)C(=O)O; steady-state kinetics; pH 7.5, 25 °C, together with: mannose 6-phosphate 3 mM).
`B6 (susA)` gave a Km of 117 µM (O=[N+]([O-])c1ccc(O[C@H]2O[C@H](CO)[C@@H](O[C@H]3O[C@H](CO)[C@@H](O[C@H]4O[C@H](CO)[C@@H](O[C@H]5O[C@H](CO)[C@@H](O[C@H]6O[C@H](CO)[C@@H](O[C@H]7O[C@H](CO)[C@@H](O)[C@H](O)[C@H]7O)[C@H](O)[C@H]6O)[C@H](O)[C@H]5O)[C@H](O)[C@H]4O)[C@H](O)[C@H]3O)[C@H](O)[C@H]2O)cc1; steady-state kinetics; pH 7).
`B7 (DMGDH H109R)` gave a Km of 2550 µM (CN(C)CC(=O)O; steady-state kinetics; pH 7.5, 25 °C, single Km, mutant, no THF, together with: ferricenium hexafluorophosphate 200 µmol/L).

A few entries again:
With `B1 (enzyme)` the Km was 100 µM (Nc1c(NC[C@H](O)[C@H](O)[C@H](O)COP(=O)(O)O)[nH]c(=O)[nH]c1=O; steady-state kinetics; pH 7.5, 25 °C).
`enzyme (Bacteroides thetaiotaomicron, UniProt Q89YZ9)` has a kcat/Km of 552000 M⁻¹ s⁻¹ (O=[N+]([O-])c1ccc(O[C@H]2O[C@H](CO)[C@@H](O)[C@H](O)[C@H]2O)cc1; steady-state kinetics; pH 6.6).
